# Measurements gathered from unrelated publications.
# A part holds a random share of what one study measured.

# Series 1 — technique: RNA Bind-n-Seq; form: RNA; matrix: in vitro; tested at: 20 nM; setting: 6-mer, flanks averaged, single round; with: 150 mM KCl; baseline: input library; direction: higher = stronger binding
# Target: TAR DNA-binding protein 43, full length, His tag (TARDBP, Homo sapiens, UniProt Q13148, residues 1-414)
Strand,6-mer enrichment (R)
AAGCUA,0.617
CACCCG,0.754
UGCGAG,1.56
UCCAUC,0.561
CUAAAU,0.615
AGCAUA,0.657
AGUACG,0.919
GACUAG,0.971
AAUUAG,0.681
GAUCGA,0.832
GAAUAA,0.888
AGUGGU,1.47
GAACCG,0.967
CCGGUU,0.694
AUCAAG,0.671
GGUAGU,1.42
GAGUCG,1.36
GAACAA,0.796
AUGUUA,0.707
ACACCA,0.74
AUUGCC,0.618
ACCGCG,0.939

# Series 2 — technique: universal PBM; form: double-stranded DNA, one strand shown; matrix: in vitro; tested at: 600 nM; direction: higher = stronger binding
# Target: Sal-like protein 4, full length isoform A (SALL4, Homo sapiens, UniProt Q9UJQ4, residues 1-1053)
# Sequence of UniProt Q9UJQ4 (whole entry, looked up): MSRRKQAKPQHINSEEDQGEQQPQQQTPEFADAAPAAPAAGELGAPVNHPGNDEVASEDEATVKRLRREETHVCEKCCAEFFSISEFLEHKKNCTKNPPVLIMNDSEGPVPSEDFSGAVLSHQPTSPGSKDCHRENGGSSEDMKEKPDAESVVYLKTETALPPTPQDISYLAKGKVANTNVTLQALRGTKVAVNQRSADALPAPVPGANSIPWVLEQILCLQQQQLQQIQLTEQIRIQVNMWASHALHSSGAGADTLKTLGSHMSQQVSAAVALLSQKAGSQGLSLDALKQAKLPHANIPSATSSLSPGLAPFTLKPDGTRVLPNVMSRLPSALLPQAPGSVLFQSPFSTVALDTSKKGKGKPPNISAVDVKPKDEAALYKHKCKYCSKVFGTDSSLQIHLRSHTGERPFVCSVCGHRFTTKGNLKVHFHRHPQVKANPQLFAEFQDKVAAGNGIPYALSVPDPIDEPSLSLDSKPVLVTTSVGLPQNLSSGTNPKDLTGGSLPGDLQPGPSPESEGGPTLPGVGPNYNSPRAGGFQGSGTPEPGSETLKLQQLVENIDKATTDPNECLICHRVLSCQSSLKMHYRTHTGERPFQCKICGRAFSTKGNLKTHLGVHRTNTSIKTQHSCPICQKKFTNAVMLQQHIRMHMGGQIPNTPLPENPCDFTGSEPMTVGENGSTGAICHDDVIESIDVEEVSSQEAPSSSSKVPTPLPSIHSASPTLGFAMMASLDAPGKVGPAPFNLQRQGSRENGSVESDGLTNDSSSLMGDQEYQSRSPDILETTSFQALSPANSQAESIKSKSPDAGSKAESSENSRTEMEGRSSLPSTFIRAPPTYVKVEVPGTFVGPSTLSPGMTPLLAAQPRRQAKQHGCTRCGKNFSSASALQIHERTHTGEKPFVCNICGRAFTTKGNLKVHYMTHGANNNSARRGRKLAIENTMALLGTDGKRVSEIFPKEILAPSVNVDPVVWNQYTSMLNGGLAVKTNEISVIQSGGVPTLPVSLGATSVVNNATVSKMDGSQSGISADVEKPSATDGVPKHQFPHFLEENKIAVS
# Setting: 8-mer, flanks averaged, mean of replicates
Strand,E-score
ACAACGCA,-0.00034
GTCACGTA,0.0313
CATCGAAC,0.0394
GTGATCAC,-0.149
CGCCTCGC,-0.307
GGGACAAA,0.0177
AGTACATG,0.0342
AACTGACA,-0.0188
ACTACGGC,-0.214
AATCACCC,-0.0146
CAGAGTGG,-0.248
TCAGAGAA,0.123
TCCCCCGA,-0.3
TATCACGA,0.169
CTATTTGC,0.205
GCAAGACC,-0.153
ACGGAAGG,-0.235
ATAAAACA,0.338
GGCGCTAA,-0.123
GAGACCGA,-0.245
AACCTGGC,-0.195
TGTACAAA,0.278
ACCCGACG,-0.293
AAGGGTCT,-0.0679
CTATGGAC,-0.0185

# Series 3 — technique: aptamer microarray, sandwich; form: DNA with 2'F-ANA; matrix: in vitro; tested at: 200 nM; with: Cy3 exosite-II aptamer, 400 nM; direction: higher = stronger binding; strand: GGTTGGTGTGGTTGG
# Target: Prothrombin, mature alpha-thrombin (F2, Homo sapiens, UniProt P00734)
# Setting: whole 15-mer aptamer, many near background
Modification,mean fluorescence intensity [a.u.]
2'F-ANA at 3 4 5 6 8 11 12 15,170
2'F-ANA at 4 6 7 11 12 13 15,275
2'F-ANA at 3 5 6 7 8 13 14,52.6
2'F-ANA at 2 8 9 11 12 13,550
2'F-ANA at 1 2 3 4 6 8 9 10 11 13 15,102
2'F-ANA at 1 2 3 5 6 9 10 11 13,57.7
2'F-ANA at 3 4 6 8 9 10 11 13,209
2'F-ANA at 1 3 4 5 7 8 10 11 12 13 15,51.9
2'F-ANA at 3 5 6 8 9 10 13,52.7
2'F-ANA at 1 2 8 9 11 13,115
2'F-ANA at 3 4 6 7 10 12 13 14 15,164
2'F-ANA at 2 3 4 5 6 7 8 12,218
2'F-ANA at 5 6 9 10 11 12 14,81.6
2'F-ANA at 2 4 7 8 11 13 14,114
2'F-ANA at 4 6 7 8 9 10 14 15,62.5
2'F-ANA at 2 3 5 6 7 12 14,51.8
2'F-ANA at 2 3 4 5 6 7 8 9 11 13 14,51.6
2'F-ANA at 1 3 4 6 11 14,65.1
2'F-ANA at 3 4 6 9 10 11 12 13 15,231
2'F-ANA at 1 3 5 6 10 11 13 14,44.2
2'F-ANA at 1 2 3 4 5 6 7 9 11 12,89.2
2'F-ANA at 1 2 3 5 7 8 11 13 14,48.1
2'F-ANA at 5 8 11 12 14 15,52.4
2'F-ANA at 4 5 9 10 12 13 15,46.8
2'F-ANA at 1 2 4 6 7 8 9 11 12 13 14 15,67.2

# Series 4 — technique: RNA Bind-n-Seq; form: RNA; matrix: in vitro; tested at: 200 nM; setting: whole 134-nt RNA, ends assumed; with: 150 mM LiCl; baseline: input library; direction: higher = stronger binding; all molecules: 7-deaza-guanosine replaces G
# Target: Ras GTPase-activating protein-binding protein 1, full length (G3BP1, Homo sapiens, UniProt Q13283)
# Sequence of UniProt Q13283 (whole entry, looked up): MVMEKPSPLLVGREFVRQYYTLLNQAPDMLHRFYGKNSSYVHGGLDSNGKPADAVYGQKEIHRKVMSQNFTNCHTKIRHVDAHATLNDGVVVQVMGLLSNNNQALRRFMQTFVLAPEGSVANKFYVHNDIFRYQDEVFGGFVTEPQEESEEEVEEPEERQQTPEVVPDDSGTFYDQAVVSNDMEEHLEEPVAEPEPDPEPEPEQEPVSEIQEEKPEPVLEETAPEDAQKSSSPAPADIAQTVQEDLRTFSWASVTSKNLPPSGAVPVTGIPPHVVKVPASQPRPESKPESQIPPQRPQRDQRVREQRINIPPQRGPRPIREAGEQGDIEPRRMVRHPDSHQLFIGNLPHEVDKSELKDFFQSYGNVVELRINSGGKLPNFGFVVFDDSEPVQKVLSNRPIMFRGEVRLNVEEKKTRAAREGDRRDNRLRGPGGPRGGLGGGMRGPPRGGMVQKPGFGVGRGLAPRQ
# Constant ends, left off below: GGGAGUUCUACAGUCCGACGAUC … UGGAAUUCUCGGGUGUCAAGG
Strand,log2 enrichment
UUUUAUUCUUCCAUCUUUUCCCACAGGUGGCAGCUGCCAACAAGAAGCAUUAGAACAAACCAUGCUGGGUUAAUAAAUUGCCUCAUUCGU,1.49
CCUCAAGUCCUGUGCUACACAUCGUAUGUACCGAAUCGGGAGGGGAGGGGAGGAAAGUAUUAUGUUACGCCGUUCGGAUCUGCACUUCCA,-0.0431
AAGUCCUGUGCUACACAUCGUAUGUACCGAAUCGGAAAAGGGGAAAAGGAAAAGGGGAAAGUAUUAUGUUACGCCGUUCGGAUCUGCACU,0.448
GCAGGAAGUAAAAACAAAUGGAAAUGCUUCGGAUAGUGGCAGGGGUGGGGGUUGCUAAGGAAAGGGUGGGAUGGGAGUGGGUAGAGAGUU,-0.124
UGGGUGGUGGAUUUUGUUUAUUUUUUUAGCUCAUUUCCAGGGGUGGGAAUUUUUUUUUAAUAUGUGUCAUGAAUAAAGUUGUUUUUGAAA,0.256
GUCCUGUGCUACACAUCGUAUGUACCGAAUCGGGUUUUUUUGGGUGGGAAAAAAAGGGAAAGUAUUAUGUUACGCCGUUCGGAUCUGCAC,-0.966
UAACUUUAGAGGAGGAUCUGAUGGAUAUGGCAGUGGACGUGGAUUUGGGGAUGGCUAUAAUGGGUAUGGAGGAGGACGUGGAGGUGGCAA,0.138
CCUCAAGUCCUGUGCUACACAUCGUAUGUACCGAAUCGGGAGGGGAGGGAGGGAAAGUAUUAUGUUACGCCGUUCGGAUCUGCACUUCCA,0.301
CCUGUGCUACACAUCGUAUGUACCGAAUCGGGAAAAAAGGGAAAAAAGGGGAAAAAAGGGAAAGUAUUAUGUUACGCCGUUCGGAUCUGC,0.078
UAACUUUAGAGGAGGAUCUGAUGGAUAUGGCAGUGGACGUGGAUUUGGGGAUGGCUAUAAUGGGUAUGGAGGAGGACCUGGAGCUGGCAA,-0.107
UCAAGUCCUGUGCUACACAUCGUAUGUACCGAAUCGGGGUGGGGAGGGGUGGGGAAAGUAUUAUGUUACGCCGUUCGGAUCUGCACUUCC,-0.0287

# Series 5 — technique: RNA Bind-n-Seq; form: RNA; matrix: in vitro; tested at: 365 nM; baseline: no-protein control; direction: higher = stronger binding
# Target: RNA binding protein fox-1 homolog 2, RRM domain, GST-SBP tag (RBFOX2, Homo sapiens, UniProt O43251-10, residues 100-194)
# Setting: natural RNA segment, single round, ends assumed
# Constant ends, left off below: GGGAGUUCUACAGUCCGACGAUC … UGGAAUUCUCGGGUGCCAA
# Residues (chain): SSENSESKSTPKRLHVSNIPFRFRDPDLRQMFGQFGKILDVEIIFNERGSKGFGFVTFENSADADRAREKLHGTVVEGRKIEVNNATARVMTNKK
Strand,RBNS enrichment (R)
ACUUUCAUGUACUAUGGAAAAGUACAAGUAGGUUUACAUUACUGAUUUCCAGAAGUAAGUAGUUUCCCCUUUCCUAGUCUUCUGUGUAUGUGAUGUUGUUAAUUUCUUUU,0.379
UAAACAUUGGAUUAGGCAGUCAAAAAAACCAAGCAAGCAUAAAAGGUCAAUAAGUUGUAAUCUUGAUAGUAAAGGUGGAAAACUUAUUAUAAAUGGAAAGAAAGUUUUAU,0.971
GGAAACGACGCUGAGAGGAUGACGACAACGUGCAACAGCAGAAAGAUGCUUGCAAGCAGAGUCAGGGUCACCAGUGAAUGCCACAAAAGUUCUCUUUCCCACUGUUUAAU,0.617
CACUAGUGAUCACUCUUCAGAGAGUGACUCUCGGGAAAACUGAGAGAAAUGGCUUCCGGAUGAGAUGGACCUGACUGGGGAAACACCUUUGAGCUUGUAACCUAGCAGCU,0.3
UAUAUUUAAUUUAUAAAUUUCGGACUGAUAAAAAAAUAGAGUUUUGGAAAACUAUAAAAAAUGCUUUGUUAAUGUGUGUAUUCCUAUGUAAAACACAUGGCUUCUUCUGU,0.812
AGCUCUUCAGAGUGUAAAUGAGGGUCUGACUGGAAGCAGGGCAGCAGCUGUAAUUCUUCCAGCUCUCUCCAAAAGCACCAGUUCUUAUCUUGGGCCUGCACUAGGCUUUA,0.392
UGCUGGGACUGGGCUGGUUUUGUCCUUGAAGUGGUCAGGAUACAGGACAAGGGCAGCCCCACCCCAUCCAGCCUGGGCUCCCCGCAGACCCUUGCUGCUCCCGUGGCCUG,0.937
GAAGGCUGGUGCACUCAGGGCUGUGGGAAGGCAGAAUCACCUCAUCCAUUUGGCCUGUGAAGGAAGUAACCUCACUUUGCUGUCUGAGCAGCAUGUAUUCCUGGCAUGGG,2.05
GAUACUCACCCAUGCAUAGCUACCCAGGGUUAAUUGGUAGCUGGGAUAUCUUUUCGCCUCAGACAGCUCUUCGAUUGCUCAUACAGAACAAUUCUGCCGGUGCUGAAGUA,0.466
GGCCAGCUCUCGUCUGCUCUCGCCUUUAUCCUUCUCGGCUGCUGCUCUUCCUCUCCAGAGCCUUGGGAGAAGGACUUUCCCCGGUUGUACUUAAUUGAUUGGUUGUCCCA,1.29
UCAAUUUAAAAGUGAGUGUGGAAGGGAAACGAAAGUCAACAUAUUUUUAAAAGAUCUUAAAAAUAAUGCCUCUGUCUAGCAUGCCAACAAGAAUGCAUUGAUAUUGUGAA,12.2
ACAGCAAGCUCCAGCUGUUGGAAGGCUUAGAAAGAAAAUAUGAGGACAAUCAAAAAUACUUAGAAGAUAAAGCUCAAGAAUUGGUGCGACUGGAAGGAGAGGUUCGCUCC,0.382

# Series 6 — technique: protein binding microarray; form: double-stranded DNA, one strand shown; matrix: in vitro; tested at: not given; baseline: not given; direction: higher = stronger binding
# Target: Histone acetyltransferase KAT6A, both winged helices, GST fusion (KAT6A, Homo sapiens, UniProt Q92794, residues 1-181)
# Setting: 8-mer, flanks averaged, mean of 2 arrays, mostly near background
# Residues (chain): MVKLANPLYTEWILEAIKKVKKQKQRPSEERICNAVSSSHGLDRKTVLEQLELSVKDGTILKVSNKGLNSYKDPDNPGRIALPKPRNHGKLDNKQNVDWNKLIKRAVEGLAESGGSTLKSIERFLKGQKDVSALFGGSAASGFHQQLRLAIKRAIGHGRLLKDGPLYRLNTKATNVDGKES
Strand,E-score
ATGATAGA,-0.0642
AAAAGTCA,-0.0255
GTTACCTA,-0.234
TTGCAAAA,-0.219
CCTATAGG,-0.139
ATGTAGTG,-0.183
CTCCCCGC,0.243
AATTATGT,0.0632
GGGTGAAA,-0.0913
CTATTAGA,-0.0617
GGCATTGA,0.00833
ATACGTCC,0.0221
TAAACAGA,-0.139
AAAAAACC,-0.0529
ATTGAAAA,-0.0454
AAAAGGTT,-0.106
CTCAAATC,-0.122
CCCTAAGC,-0.059
GGTAAACC,0.0677
AAATTCTG,-0.0132
AGATTACA,-0.0329
ATCAGCAC,-0.209
TGGTCGAA,-0.228
ACTGTATG,-0.0457
CGTCGACG,0.206

# For quick reference, copied from above (series 3):
Modification,mean fluorescence intensity [a.u.]
2'F-ANA at 3 5 6 7 8 13 14,52.6
2'F-ANA at 3 5 6 8 9 10 13,52.7
2'F-ANA at 2 4 7 8 11 13 14,114
2'F-ANA at 2 3 4 5 6 7 8 12,218
2'F-ANA at 3 4 6 8 9 10 11 13,209
2'F-ANA at 4 5 9 10 12 13 15,46.8
2'F-ANA at 1 2 3 5 6 9 10 11 13,57.7
2'F-ANA at 4 6 7 11 12 13 15,275
2'F-ANA at 4 6 7 8 9 10 14 15,62.5
2'F-ANA at 2 3 4 5 6 7 8 9 11 13 14,51.6
2'F-ANA at 3 4 6 9 10 11 12 13 15,231
2'F-ANA at 1 2 3 4 6 8 9 10 11 13 15,102
2'F-ANA at 1 2 3 4 5 6 7 9 11 12,89.2
2'F-ANA at 1 3 4 6 11 14,65.1
2'F-ANA at 1 3 4 5 7 8 10 11 12 13 15,51.9
2'F-ANA at 2 3 5 6 7 12 14,51.8
2'F-ANA at 1 2 4 6 7 8 9 11 12 13 14 15,67.2
